Experimental data pooled from the literature.
Lines come from different studies, so protocols differ.
RPS6KA3: Ribosomal protein S6 kinase alpha-3 (RPS6KA3, Homo sapiens, UniProt P51812)
UniProt P51812, sequence (whole entry, looked up): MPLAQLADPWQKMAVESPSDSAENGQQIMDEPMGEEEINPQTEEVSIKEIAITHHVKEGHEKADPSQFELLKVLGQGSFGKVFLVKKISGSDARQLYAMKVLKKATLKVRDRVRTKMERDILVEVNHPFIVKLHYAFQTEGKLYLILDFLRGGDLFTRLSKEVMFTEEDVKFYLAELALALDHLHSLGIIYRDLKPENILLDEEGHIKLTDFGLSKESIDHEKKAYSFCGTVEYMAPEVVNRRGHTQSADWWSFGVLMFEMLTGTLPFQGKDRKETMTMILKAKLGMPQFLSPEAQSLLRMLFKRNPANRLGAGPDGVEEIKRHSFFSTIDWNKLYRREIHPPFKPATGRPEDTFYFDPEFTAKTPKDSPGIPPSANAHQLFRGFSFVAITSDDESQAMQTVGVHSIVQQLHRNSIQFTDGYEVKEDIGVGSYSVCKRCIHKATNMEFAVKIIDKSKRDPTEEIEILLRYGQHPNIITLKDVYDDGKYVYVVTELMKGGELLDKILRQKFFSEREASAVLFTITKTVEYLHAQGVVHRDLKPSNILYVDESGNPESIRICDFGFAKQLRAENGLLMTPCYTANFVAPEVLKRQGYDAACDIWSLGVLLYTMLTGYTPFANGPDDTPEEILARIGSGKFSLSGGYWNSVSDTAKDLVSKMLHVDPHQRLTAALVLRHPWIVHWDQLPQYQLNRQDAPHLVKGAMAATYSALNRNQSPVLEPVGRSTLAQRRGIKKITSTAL

SMILES	target	assay	test system	conditions	scale	endpoint	result
COc1cc(F)ccc1-c1ncnc(Nc2cccc(C[S@](C)(=N)=O)c2)n1	RPS6KA3	kinase activity		10 µM, added: 10 µM ATP		remaining activity	122%
CN1CC(Oc2cnc(C#N)cc2-c2ccn3nc(NC(=O)C4CC4)cc3c2)C1	RPS6KA3	inhibitor, KinaseProfiler panel		1 µM		inhibition	19%
CCN1CCN(Cc2ccc(NC(=O)c3ccc(C)c(/C=C/c4cnc5[nH]ccc5c4OC)c3)cc2C(F)(F)F)CC1	RPS6KA3		A-375	concentration not given		inhibition	0.274%
C=CC(=O)N1CCC(COCC(=O)N2CCN(c3nc(-c4cnc(N)nc4C(F)F)nc(N4CCOC[C@@H]4C)n3)CC2)CC1	Ribosomal protein S6 kinase alpha-3, N-terminal kinase domain (RPS6KA3, Homo sapiens, UniProt P51812)	KINOMEscan		1 µM		remaining binding	100%
CC[C@@H]1[C@H](F)C(=O)N[C@@H]1COc1nccc2cc(C(N)=O)c(OC)cc12	RPS6KA3	ATP probe binding, KiNativ profiling, item: domain 2 Lys2 site	THP-1 cell lysate	0.04 mM		inhibition	-18.2%
O=C1NC(=O)/C(=C/c2ccc(-c3ccc(F)cc3O)o2)S1	RPS6KA3	enzyme activity		10 µM		remaining activity	40%
CCN1CCN(Cc2ccc(NC(=O)c3ccc(C)c(Oc4ccnc5[nH]ccc45)c3)cc2C(F)(F)F)CC1	RPS6KA3		A-375	concentration not given		inhibition	-0.0649%
CNc1ncc2c(/C=C/C(=O)N3CCC(OC)CC3)nn(Cc3cccc(C(F)(F)F)c3)c2n1	RPS6KA3	kinase activity, inhibitor		1 µM	relative to: untreated control	remaining activity	109%
